# Measured values collected from several papers.
# Matrix: plasma
Compound,host,route,dose,notes,half-life [h]
CCCOc1ccc([C@H]2CNC(=O)N2c2ccc3[nH]cnc3c2)cc1,human,oral,800 mg,fasted,7.77
O=C(CCCCCCC(=O)Nc1ccccc1)NO,human,oral,400 mg,single dose,1.7
CS(=O)(=O)n1cc2c(n1)CN([C@H]1CO[C@H](c3cc(F)ccc3F)[C@@H](N)C1)C2,male human,oral,5 mg,"single dose, fasted, healthy volunteers",66.7
C=CC(=O)Nc1cc(Nc2ncc(C(=O)OC(C)C)c(-c3cn(C)c4ccccc34)n2)c(OC)cc1N(C)CCN(C)C,human,oral,40 mg,"single dose, fasted, healthy volunteers",16
CC(C)(/C=C(\C#N)C(=O)N1CCC[C@@H](n2nc(-c3ccc(Oc4ccccc4)cc3F)c3c(N)ncnc32)C1)N1CCN(C2COC2)CC1,male human,oral,400 mg,"single dose, tablet",3.2
COc1cccc(-c2ccc(NC(=O)C3=C(C(=O)O)CCC3)c(F)c2)c1,male human,oral,10 mg,"single dose, fed, healthy volunteers",33.7
CC(=O)O[C@@]12CO[C@@H]1C[C@H](O)[C@@]1(C)C(=O)[C@H](O)C3=C(C)[C@@H](OC(=O)[C@H](O)[C@@H](NC(=O)OC(C)(C)C)c4ccccc4)C[C@@](O)([C@@H](OC(=O)c4ccccc4)[C@H]21)C3(C)C,human,intravenous,75 mg/m²,patients,14.9
CC(=O)N[C@H]1CC[C@H](NC(=O)CN2CCN(c3nncc(-c4ccc(C)cc4)n3)CC2)CC1,male human,oral,100 mg,"single dose, fasted",11.4
O=C(O)COC[C@H]1CC[C@H](COC(=O)N(c2ccccc2)c2ccc(Cl)cc2)CC1,human,oral,50 µg,"single dose, healthy volunteers",20.7
CNCc1ccc(-c2[nH]c3cc(F)cc4c3c2CCNC4=O)cc1,human,oral,300 mg,"single dose, fed",17.4
O=C(c1nc2n(n1)[C@H](c1ccccc1)C[C@@H]2F)C1CC1,human,oral,225 mg,"single dose, fasted, healthy volunteers",11.9
C#C[C@]1(CO)O[C@@H](n2cnc3c(N)nc(F)nc32)C[C@@H]1O,human,oral,30 mg,"single dose, fasted, healthy volunteers",48.6
CNc1nc(Nc2ccc(-n3cnc(C)n3)c(OC)c2)nc2c1CC[C@H]2c1ccc(F)cc1,human,oral,10 mg,"single dose, healthy volunteers",16
C=CC(=O)Nc1cc(Nc2ncc(C(=O)OC(C)C)c(-c3cn(C)c4ccccc34)n2)c(OC)cc1N(C)CCN(C)C,human,oral,160 mg,,28
CC#CC(=O)N[C@H]1CCCN(c2c(F)cc(C(N)=O)c3[nH]c(C)c(C)c23)C1,human,oral,0.3 mg,single dose,1.22
C[C@@H]1CCC[C@H](n2cnc(-c3cc(Cl)ccc3-n3cc(Cl)nn3)cc2=O)c2cc(ccn2)-c2c(cnn2C(F)F)NC1=O,human,oral,300 mg,"single dose, fasted, healthy volunteers",13.8
Nc1ccc(-c2nc([C@H]3CCc4cc(-c5cc(Cl)ccc5-n5cnnn5)cc(=O)n43)c(F)[nH]2)c(F)n1,human,oral,5 mg,"single dose, fasted",17.8

# Excerpt of the above:
Compound,host,route,dose,notes,half-life [h]
O=C(CCCCCCC(=O)Nc1ccccc1)NO,human,oral,400 mg,single dose,1.7
CS(=O)(=O)n1cc2c(n1)CN([C@H]1CO[C@H](c3cc(F)ccc3F)[C@@H](N)C1)C2,male human,oral,5 mg,"single dose, fasted, healthy volunteers",66.7
C=CC(=O)Nc1cc(Nc2ncc(C(=O)OC(C)C)c(-c3cn(C)c4ccccc34)n2)c(OC)cc1N(C)CCN(C)C,human,oral,40 mg,"single dose, fasted, healthy volunteers",16
